Experimental data pooled from the literature.
Every numbered part comes from another study and shows a few of its results, in no order. Values joined by “and” are separate records of one study, mostly repeats; a detail may differ.
Sequence of UniProt Q8IY84 (whole entry, looked up): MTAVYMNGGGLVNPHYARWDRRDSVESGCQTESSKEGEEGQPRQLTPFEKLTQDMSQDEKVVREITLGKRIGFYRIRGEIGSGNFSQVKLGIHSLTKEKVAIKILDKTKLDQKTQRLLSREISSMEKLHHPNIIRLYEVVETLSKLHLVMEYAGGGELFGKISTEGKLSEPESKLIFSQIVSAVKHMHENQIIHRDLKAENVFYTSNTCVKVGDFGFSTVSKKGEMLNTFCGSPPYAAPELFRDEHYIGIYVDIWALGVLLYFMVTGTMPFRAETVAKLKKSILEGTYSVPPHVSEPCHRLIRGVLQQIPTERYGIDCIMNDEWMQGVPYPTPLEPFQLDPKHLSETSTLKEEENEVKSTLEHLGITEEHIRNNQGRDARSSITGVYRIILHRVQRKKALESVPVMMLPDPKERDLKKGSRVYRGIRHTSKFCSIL
Sequence of UniProt O15264 (whole entry, looked up): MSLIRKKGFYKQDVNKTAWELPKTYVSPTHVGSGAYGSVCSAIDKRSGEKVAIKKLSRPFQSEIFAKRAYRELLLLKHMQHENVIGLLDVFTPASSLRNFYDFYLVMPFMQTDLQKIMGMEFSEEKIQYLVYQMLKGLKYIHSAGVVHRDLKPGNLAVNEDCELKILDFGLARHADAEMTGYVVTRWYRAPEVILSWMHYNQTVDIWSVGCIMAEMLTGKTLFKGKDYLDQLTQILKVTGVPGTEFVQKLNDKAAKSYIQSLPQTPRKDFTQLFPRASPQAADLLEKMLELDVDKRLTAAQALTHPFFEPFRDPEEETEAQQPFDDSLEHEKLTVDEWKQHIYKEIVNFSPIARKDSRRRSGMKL
Sequence of UniProt P31749 (whole entry, looked up): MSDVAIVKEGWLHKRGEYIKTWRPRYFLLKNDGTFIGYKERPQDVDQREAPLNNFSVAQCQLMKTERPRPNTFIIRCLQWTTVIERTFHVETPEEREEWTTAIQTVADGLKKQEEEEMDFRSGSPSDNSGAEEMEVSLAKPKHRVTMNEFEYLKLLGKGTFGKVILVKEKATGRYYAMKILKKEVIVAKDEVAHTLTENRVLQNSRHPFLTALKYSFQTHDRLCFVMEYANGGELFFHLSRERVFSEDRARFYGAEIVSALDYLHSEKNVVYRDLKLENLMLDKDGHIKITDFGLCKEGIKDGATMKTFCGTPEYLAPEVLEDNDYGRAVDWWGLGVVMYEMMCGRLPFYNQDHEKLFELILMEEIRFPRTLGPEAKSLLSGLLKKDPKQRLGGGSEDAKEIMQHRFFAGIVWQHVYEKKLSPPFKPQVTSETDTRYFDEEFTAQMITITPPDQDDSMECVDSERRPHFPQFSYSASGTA
Sequence of UniProt Q96RG2 (whole entry, looked up): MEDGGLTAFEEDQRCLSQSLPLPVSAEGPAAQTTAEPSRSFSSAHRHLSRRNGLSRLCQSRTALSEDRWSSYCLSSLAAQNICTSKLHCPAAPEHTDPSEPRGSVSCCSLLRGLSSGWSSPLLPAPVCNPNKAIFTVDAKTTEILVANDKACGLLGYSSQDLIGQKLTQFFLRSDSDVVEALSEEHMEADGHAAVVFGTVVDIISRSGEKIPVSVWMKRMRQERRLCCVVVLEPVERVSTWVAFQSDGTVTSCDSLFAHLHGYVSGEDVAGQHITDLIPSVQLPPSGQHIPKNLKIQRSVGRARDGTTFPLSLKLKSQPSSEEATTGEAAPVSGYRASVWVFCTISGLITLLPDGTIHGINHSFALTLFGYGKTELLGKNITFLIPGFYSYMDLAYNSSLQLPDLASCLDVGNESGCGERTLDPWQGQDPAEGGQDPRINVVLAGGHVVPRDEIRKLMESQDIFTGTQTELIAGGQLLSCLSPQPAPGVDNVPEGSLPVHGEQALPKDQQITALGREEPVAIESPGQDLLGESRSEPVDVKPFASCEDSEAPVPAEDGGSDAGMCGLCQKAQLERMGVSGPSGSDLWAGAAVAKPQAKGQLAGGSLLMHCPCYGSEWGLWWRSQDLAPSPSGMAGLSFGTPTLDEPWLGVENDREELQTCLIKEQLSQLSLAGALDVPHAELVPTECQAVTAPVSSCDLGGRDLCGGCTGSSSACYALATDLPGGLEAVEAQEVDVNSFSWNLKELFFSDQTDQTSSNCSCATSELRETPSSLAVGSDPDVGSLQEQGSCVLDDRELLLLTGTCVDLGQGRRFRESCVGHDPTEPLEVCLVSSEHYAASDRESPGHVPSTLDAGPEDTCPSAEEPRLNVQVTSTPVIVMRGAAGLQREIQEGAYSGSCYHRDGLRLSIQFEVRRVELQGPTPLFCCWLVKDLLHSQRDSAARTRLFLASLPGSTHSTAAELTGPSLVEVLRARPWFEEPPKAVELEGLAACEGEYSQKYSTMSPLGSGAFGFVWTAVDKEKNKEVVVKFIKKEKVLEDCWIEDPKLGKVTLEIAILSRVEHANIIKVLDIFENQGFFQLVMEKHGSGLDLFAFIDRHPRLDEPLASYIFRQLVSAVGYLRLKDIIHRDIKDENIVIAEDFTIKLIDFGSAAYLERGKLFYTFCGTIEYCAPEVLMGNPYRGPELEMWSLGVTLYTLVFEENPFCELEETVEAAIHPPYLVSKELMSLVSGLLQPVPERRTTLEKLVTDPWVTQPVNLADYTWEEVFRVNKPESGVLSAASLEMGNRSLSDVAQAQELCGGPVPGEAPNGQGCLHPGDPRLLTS
Sequence of UniProt P35916 (whole entry, looked up): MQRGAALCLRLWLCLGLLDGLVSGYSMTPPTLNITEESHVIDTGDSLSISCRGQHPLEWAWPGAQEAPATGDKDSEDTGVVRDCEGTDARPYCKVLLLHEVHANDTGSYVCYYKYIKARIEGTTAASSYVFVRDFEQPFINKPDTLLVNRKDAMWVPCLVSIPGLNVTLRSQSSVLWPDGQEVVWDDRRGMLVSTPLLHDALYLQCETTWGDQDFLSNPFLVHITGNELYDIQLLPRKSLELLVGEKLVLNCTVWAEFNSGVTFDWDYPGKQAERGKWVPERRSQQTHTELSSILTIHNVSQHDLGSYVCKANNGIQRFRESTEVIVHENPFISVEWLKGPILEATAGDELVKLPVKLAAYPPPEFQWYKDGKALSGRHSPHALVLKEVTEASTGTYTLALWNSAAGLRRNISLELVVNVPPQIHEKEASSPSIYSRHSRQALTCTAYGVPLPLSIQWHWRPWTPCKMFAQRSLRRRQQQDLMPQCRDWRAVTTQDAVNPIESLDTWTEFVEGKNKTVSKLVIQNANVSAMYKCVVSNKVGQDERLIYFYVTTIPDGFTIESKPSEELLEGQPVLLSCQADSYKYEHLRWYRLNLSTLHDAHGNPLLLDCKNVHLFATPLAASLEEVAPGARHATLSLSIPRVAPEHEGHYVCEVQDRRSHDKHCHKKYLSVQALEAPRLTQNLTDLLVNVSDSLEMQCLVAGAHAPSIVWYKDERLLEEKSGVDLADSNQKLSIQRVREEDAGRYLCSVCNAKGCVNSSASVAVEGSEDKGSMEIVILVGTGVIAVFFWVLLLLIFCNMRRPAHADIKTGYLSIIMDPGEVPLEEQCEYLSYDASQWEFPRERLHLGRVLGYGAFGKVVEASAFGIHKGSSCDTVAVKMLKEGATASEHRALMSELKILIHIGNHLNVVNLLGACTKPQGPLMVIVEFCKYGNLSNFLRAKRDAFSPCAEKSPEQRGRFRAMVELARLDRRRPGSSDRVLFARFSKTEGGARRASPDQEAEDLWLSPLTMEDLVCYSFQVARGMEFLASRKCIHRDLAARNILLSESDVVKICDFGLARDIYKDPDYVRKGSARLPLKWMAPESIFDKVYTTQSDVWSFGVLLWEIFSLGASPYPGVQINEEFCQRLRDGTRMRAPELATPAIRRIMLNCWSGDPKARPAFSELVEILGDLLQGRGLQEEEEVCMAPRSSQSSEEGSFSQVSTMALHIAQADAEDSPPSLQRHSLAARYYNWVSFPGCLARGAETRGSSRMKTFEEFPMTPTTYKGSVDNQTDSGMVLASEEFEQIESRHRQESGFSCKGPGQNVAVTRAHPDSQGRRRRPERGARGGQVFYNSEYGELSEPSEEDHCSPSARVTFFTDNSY
Sequence of UniProt P42679 (whole entry, looked up): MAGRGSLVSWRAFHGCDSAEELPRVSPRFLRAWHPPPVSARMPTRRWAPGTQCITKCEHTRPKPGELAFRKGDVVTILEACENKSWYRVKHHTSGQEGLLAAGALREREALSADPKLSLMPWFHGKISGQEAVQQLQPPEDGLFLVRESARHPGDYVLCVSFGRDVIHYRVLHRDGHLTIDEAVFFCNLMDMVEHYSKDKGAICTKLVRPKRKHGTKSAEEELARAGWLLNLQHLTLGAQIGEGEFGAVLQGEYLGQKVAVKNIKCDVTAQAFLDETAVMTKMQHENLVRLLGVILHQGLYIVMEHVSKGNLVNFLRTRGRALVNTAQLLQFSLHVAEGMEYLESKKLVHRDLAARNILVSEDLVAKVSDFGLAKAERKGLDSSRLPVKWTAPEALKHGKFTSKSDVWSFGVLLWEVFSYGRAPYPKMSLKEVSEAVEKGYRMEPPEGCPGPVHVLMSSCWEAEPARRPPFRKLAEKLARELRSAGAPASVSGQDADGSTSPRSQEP
Sequence of UniProt O00506 (whole entry, looked up): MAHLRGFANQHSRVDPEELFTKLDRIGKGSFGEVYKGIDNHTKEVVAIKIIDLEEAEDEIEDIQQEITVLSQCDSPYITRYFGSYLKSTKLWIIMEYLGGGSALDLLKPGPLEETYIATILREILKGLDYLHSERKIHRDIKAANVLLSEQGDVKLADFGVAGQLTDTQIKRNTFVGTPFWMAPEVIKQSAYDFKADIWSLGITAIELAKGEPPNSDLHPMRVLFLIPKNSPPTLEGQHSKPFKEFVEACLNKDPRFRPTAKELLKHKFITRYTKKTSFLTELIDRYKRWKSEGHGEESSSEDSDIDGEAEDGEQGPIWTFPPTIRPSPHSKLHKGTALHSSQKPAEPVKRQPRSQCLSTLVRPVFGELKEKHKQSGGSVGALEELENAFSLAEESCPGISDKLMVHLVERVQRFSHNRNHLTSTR

Study 1 — Compound: CCOc1cc2ncnc(Nc3cccc(Br)c3)c2cc1OCC; effect on: enzyme activity; mode: inhibitor; tested at: 0.5 µM; reference: control
| target | remaining activity [%] |
| --- | --- |
| Vascular endothelial growth factor receptor 3 (FLT4, Homo sapiens, UniProt P35916) | 88.1 |
| Serine/threonine-protein kinase TAO3 (TAOK3, Homo sapiens, UniProt Q9H2K8) | 96.2 |
| Proto-oncogene tyrosine-protein kinase Src (SRC, Homo sapiens, UniProt P12931) | 74.8 |
| Tyrosine-protein kinase Fgr (FGR, Homo sapiens, UniProt P09769) | 61.9 |
| Tyrosine-protein kinase Fer (FER, Homo sapiens, UniProt P16591) | 90.7 |
| Tyrosine-protein kinase Fyn (FYN, Homo sapiens, UniProt P06241) | 78.9 |
| PAS domain-containing serine/threonine-protein kinase (PASK, Homo sapiens, UniProt Q96RG2) | 92.3 |
| Serine/threonine-protein kinase N1 (PKN1, Homo sapiens, UniProt Q16512) | 100 |
| Serine/threonine-protein kinase 25 (STK25, Homo sapiens, UniProt O00506) | 90.1 |
| LIM domain kinase 1 (LIMK1, Homo sapiens, UniProt P53667) | 101 |
| MAP/microtubule affinity-regulating kinase 3 (MARK3, Homo sapiens, UniProt P27448) | 98.8 |
| Homeodomain-interacting protein kinase 1 (HIPK1, Homo sapiens, UniProt Q86Z02) | 104 |
| RAC-alpha serine/threonine-protein kinase (AKT1, Homo sapiens, UniProt P31749) | 112 |
| Tyrosine-protein kinase ITK/TSK (ITK, Homo sapiens, UniProt Q08881) | 104 |
| Cyclin-dependent kinase 3, with cyclin E (CDK3, Homo sapiens, UniProt Q00526) | 95.2 |
| Serine/threonine-protein kinase Nek11 (NEK11, Homo sapiens, UniProt Q8NG66) | 103 |
| Megakaryocyte-associated tyrosine-protein kinase (MATK, Homo sapiens, UniProt P42679) | 90.5 |
| cAMP-dependent protein kinase catalytic subunit PRKX (PRKX, Homo sapiens, UniProt P51817) | 99.8 |
| Insulin receptor (INSR, Homo sapiens, UniProt P06213) | 98.7 |
| ALK tyrosine kinase receptor (ALK, Homo sapiens, UniProt Q9UM73) | 85.8 |
| Serine/threonine-protein kinase MRCK alpha (CDC42BPA, Homo sapiens, UniProt Q5VT25) | 85.4 |
| Serine/threonine-protein kinase NLK (NLK, Homo sapiens, UniProt Q9UBE8) | 95.9 |

Study 2 — tested at: 1 µM
Structure (SMILES): CN1CCN(C(=O)c2ccc(NC(=O)Nc3ccc(N(C)c4ccnc(Nc5ccc(CS(C)(=O)=O)cc5)n4)cc3)cc2)CC1
| target | test | setting | scale | remaining binding [%] |
| --- | --- | --- | --- | --- |
| Protein kinase C epsilon type (PRKCE, Homo sapiens, UniProt Q02156) | competitive binding panel | – | reference: vehicle | 99 |
| Myosin light chain kinase, smooth muscle (MYLK, Homo sapiens, UniProt Q15746) | competitive binding panel | – | reference: vehicle | 100 |
| Serine/threonine-protein kinase LATS1 (LATS1, Homo sapiens, UniProt O95835) | competitive binding panel | – | reference: vehicle | 68 |
| Aurora kinase A (AURKA, Homo sapiens, UniProt O14965) | competitive binding panel | – | reference: vehicle | 0 |
| Fibroblast growth factor receptor 3 (FGFR3, Homo sapiens, UniProt P22607) | competitive binding panel | – | reference: vehicle | 100 |
| Mitogen-activated protein kinase 13 (MAPK13, Homo sapiens, UniProt O15264) | competitive binding | p38-delta | – | 100 |
| Phosphatidylinositol 4,5-bisphosphate 3-kinase catalytic subunit alpha isoform (PIK3CA, Homo sapiens, UniProt P42336, H1047Y) | competitive binding panel | – | reference: vehicle | 100 |
| Homeodomain-interacting protein kinase 4 (HIPK4, Homo sapiens, UniProt Q8NE63) | competitive binding panel | – | reference: vehicle | 74 |
| Ribosomal protein S6 kinase alpha-4 (RPS6KA4, Homo sapiens, UniProt O75676) | competitive binding scan | N-terminal kinase domain 1 | – | 82 |
| Serine/threonine-protein kinase NIM1 (NIM1K, Homo sapiens, UniProt Q8IY84) | competitive binding panel, refers to: NIM1 | – | reference: vehicle | 99 |

Study 3 — cell line: A-375; tested at: 100 µM; time: 18 h
| SMILES | viability |
| --- | --- |
| NS(=O)(=O)c1cc2c(cc1Cl)N=C(CSCc1ccccc1)NS2(=O)=O | 82.4% |
| NC[C@H]1O[C@H](O[C@H]2[C@H](O)[C@@H](O[C@H]3O[C@H](CO)[C@@H](O)[C@H](N)[C@H]3O)[C@H](N)C[C@@H]2N)[C@H](O)[C@@H](O)[C@@H]1O | 99.1% |
| CN(N=O)C(=O)N[C@@H](C=O)[C@@H](O)[C@H](O)[C@H](O)CO | 105% |
| Cc1cn(-c2cc(NC(=O)c3ccc(C)c(Nc4nccc(-c5cccnc5)n4)c3)cc(C(F)(F)F)c2)cn1 | 8.75% |
| COc1cc(S(=O)(=O)O)ccc1O | 106% and 89.7% |
| N[C@@H](Cc1c[nH]c2ccc(O)cc12)C(=O)O | 102% |
| Cc1cnc(C(=O)O)c[n+]1[O-] | 84.3% |
| CCCCC(CC)COC(=O)CC(C(=O)OCC(CC)CCCC)S(=O)(=O)O (stereo not drawn) | 17.3% |
| CCn1cc(C(=O)O)c(=O)c2cc(F)c(N3CCNCC3)nc21 | 104% and 92.5% |
| CC(=O)O[C@@]12CO[C@@H]1C[C@H](O)[C@@]1(C)C(=O)[C@H](O)C3=C(C)[C@@H](OC(=O)[C@H](O)[C@@H](NC(=O)OC(C)(C)C)c4ccccc4)C[C@@](O)([C@@H](OC(=O)c4ccccc4)[C@H]21)C3(C)C | 55.4% |
| O=C(O)CCCC[C@@H]1CCSS1 | 106% |
| CCOC(=O)C1=C[C@]2(CC)CCCN3CCc4c(n1c1ccccc41)[C@@H]32 | 44.8% |
| COc1cc(C(=O)NS(=O)(=O)c2ccccc2C)ccc1Cc1cn(C)c2ccc(NC(=O)OC3CCCC3)cc12 | 45.8% |
| CC(C)C(=O)c1c(C(C)C)nn2ccccc12 | 78.2% |
| CC1=C(C(=O)OC(C)C)C(c2cccc([N+](=O)[O-])c2)C(C(=O)OC2CN(C(c3ccccc3)c3ccccc3)C2)=C(N)N1 (stereo not drawn) | 12.1% |
| C/C=C1\[C@H]2C=C(C)C[C@]1(N)c1ccc(=O)[nH]c1C2 | 104% |

Further values, each from its own experiment
| SMILES | target or system | test | test system | setting | quantity | value |
| --- | --- | --- | --- | --- | --- | --- |
| Cc1c(NC(=O)c2cc(C(N)=O)nc3cc(F)ccc23)c(C(F)(F)F)nn1Cc1ccc(C(C)(C)C)cc1 | 5-hydroxytryptamine receptor 3A (HTR3A, Homo sapiens, UniProt P46098) | binding, radioligand binding | – | 10 µM | inhibition | 7.59% |
| CC(C)n1cnc(-c2ccc(F)cc2)c1-c1ncc(C(=O)Nc2ccc(N3CCN(C)CC3)cc2)[nH]1 | – | phase 2a clinical trial | patients with idiopathic pulmonary fibrosis | 30 mg once daily | patients with allergic conjunctivitis TEAE | 0% |
| CN(c1ccnc(CNc2nc(Nc3ccc4c(c3)CC(=O)N4)ncc2C(F)(F)F)n1)S(C)(=O)=O | Protein-tyrosine kinase 2-beta (PTK2B, Homo sapiens, UniProt Q14289) | target engagement in cells, BRET | – | – | EC50 | 37 µM |

Some of these lines once more (study 1):
| target | remaining activity [%] |
| --- | --- |
| Tyrosine-protein kinase Fyn (FYN, Homo sapiens, UniProt P06241) | 78.9 |
| Tyrosine-protein kinase ITK/TSK (ITK, Homo sapiens, UniProt Q08881) | 104 |
| RAC-alpha serine/threonine-protein kinase (AKT1, Homo sapiens, UniProt P31749) | 112 |
| LIM domain kinase 1 (LIMK1, Homo sapiens, UniProt P53667) | 101 |
